Measured values of several laboratories.
Protocols differ between the studies behind these lines. ± marks the error that the study gave.
Hemoglobin subunit alpha: Hemoglobin subunit alpha (Homo sapiens, UniProt P69905)
WDR76: WDR76 (Homo sapiens, UniProt Q9H967)
Chain of UniProt Q9H307 (whole entry, looked up): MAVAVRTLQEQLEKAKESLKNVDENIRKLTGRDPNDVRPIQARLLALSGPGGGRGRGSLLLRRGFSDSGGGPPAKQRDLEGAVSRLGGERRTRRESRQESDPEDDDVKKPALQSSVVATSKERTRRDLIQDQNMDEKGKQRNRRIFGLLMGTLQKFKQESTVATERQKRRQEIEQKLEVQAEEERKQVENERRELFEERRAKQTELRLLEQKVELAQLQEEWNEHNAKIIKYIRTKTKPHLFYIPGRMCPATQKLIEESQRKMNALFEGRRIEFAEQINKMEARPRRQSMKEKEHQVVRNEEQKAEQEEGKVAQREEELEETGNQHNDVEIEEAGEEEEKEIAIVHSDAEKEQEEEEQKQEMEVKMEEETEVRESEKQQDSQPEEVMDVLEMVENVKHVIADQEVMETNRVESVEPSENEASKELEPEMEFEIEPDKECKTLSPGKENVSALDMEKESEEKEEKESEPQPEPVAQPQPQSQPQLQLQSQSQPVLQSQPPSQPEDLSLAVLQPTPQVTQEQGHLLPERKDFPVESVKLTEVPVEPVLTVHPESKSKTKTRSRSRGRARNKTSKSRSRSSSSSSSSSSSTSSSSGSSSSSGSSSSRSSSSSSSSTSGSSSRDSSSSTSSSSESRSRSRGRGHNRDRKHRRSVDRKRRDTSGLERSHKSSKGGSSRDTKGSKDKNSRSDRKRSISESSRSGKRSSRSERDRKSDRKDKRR
Chain of UniProt P35251 (whole entry, looked up): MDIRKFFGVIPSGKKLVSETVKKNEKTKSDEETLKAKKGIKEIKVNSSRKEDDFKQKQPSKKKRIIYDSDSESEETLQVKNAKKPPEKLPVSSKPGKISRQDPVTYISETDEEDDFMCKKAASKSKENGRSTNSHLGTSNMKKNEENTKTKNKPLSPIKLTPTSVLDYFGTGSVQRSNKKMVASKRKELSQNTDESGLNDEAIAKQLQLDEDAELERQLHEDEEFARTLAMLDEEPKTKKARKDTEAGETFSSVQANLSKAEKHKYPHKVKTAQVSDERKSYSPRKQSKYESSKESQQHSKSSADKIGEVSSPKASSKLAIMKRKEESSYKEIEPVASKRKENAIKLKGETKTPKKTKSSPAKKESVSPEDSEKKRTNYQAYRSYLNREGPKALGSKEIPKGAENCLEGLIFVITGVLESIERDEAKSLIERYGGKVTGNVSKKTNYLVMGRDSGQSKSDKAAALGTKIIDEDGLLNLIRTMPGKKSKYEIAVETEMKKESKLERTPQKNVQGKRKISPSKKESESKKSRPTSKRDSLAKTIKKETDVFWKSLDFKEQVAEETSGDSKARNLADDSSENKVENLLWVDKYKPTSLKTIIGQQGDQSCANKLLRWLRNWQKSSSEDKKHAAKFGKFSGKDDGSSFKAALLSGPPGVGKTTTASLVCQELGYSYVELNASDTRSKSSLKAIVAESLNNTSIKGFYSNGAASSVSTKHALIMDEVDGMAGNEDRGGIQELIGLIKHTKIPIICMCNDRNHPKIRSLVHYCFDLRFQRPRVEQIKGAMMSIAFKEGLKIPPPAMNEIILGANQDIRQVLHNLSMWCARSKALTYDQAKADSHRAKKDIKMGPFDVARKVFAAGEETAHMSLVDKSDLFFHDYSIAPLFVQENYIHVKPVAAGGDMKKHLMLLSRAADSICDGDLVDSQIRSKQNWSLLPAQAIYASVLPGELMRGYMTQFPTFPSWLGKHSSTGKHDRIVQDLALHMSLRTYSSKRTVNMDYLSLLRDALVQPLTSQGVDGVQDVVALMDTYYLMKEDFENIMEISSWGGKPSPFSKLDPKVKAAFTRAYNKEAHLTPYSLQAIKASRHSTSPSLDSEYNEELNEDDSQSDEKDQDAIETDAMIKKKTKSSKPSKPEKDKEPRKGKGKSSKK
Chain of UniProt P62258 (whole entry, looked up): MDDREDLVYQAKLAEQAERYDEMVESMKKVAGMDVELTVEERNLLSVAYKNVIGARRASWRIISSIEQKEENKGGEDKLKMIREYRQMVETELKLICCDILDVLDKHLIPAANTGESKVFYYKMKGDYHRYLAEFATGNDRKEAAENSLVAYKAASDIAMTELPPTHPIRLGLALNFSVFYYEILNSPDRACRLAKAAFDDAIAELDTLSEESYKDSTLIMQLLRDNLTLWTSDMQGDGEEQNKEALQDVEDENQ
Chain of UniProt Q9Y3A2 (whole entry, looked up): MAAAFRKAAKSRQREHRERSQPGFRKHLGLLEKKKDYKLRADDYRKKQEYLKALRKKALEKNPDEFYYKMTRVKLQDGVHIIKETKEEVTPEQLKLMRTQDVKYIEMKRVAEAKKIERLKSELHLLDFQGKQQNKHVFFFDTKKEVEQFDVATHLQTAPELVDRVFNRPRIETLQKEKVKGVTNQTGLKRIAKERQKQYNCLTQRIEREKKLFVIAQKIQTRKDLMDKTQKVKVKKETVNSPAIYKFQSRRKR
Chain of UniProt P08727 (whole entry, looked up): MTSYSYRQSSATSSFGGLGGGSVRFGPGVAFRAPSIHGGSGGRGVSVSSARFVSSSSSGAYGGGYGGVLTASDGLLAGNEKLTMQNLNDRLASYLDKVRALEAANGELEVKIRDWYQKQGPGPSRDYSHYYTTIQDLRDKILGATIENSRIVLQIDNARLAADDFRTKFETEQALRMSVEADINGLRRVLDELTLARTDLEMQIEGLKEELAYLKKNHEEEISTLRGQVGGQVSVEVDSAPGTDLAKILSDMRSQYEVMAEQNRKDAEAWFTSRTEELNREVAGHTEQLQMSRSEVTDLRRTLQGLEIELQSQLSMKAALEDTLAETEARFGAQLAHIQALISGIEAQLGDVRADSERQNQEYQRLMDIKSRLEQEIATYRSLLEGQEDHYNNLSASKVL
Chain of UniProt Q9Y3I0 (whole entry, looked up): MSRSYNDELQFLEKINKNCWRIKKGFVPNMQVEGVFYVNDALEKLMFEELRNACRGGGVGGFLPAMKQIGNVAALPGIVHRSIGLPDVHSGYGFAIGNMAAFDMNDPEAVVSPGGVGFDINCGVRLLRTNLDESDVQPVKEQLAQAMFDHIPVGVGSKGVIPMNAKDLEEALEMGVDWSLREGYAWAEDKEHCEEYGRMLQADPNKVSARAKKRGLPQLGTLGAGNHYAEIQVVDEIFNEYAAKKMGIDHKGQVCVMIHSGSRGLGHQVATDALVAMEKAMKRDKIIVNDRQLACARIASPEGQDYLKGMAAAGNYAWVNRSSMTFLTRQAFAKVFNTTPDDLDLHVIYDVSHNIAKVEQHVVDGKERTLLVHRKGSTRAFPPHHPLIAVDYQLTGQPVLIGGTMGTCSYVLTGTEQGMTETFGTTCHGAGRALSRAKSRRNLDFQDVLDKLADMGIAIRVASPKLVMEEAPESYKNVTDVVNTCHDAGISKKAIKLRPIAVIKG
Chain of UniProt P23246 (whole entry, looked up): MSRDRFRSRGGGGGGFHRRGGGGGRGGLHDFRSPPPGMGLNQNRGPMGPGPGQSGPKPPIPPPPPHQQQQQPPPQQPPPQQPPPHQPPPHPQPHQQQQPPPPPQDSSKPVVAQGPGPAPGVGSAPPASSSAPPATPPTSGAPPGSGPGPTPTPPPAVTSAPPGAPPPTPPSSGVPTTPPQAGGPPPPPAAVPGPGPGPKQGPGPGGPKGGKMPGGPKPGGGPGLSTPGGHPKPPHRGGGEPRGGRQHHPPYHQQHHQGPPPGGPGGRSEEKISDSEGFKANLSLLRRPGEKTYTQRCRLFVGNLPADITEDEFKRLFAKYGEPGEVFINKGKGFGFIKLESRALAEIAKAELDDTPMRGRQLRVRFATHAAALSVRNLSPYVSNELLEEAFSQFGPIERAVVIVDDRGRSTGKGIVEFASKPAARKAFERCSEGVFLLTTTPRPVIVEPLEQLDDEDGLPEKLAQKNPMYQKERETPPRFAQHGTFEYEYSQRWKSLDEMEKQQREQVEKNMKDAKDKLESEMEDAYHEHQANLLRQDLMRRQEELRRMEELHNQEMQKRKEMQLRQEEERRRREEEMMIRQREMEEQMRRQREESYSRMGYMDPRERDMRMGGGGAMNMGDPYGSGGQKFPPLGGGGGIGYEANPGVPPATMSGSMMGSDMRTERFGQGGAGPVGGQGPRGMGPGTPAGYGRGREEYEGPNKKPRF
Chain of UniProt Q16851 (whole entry, looked up): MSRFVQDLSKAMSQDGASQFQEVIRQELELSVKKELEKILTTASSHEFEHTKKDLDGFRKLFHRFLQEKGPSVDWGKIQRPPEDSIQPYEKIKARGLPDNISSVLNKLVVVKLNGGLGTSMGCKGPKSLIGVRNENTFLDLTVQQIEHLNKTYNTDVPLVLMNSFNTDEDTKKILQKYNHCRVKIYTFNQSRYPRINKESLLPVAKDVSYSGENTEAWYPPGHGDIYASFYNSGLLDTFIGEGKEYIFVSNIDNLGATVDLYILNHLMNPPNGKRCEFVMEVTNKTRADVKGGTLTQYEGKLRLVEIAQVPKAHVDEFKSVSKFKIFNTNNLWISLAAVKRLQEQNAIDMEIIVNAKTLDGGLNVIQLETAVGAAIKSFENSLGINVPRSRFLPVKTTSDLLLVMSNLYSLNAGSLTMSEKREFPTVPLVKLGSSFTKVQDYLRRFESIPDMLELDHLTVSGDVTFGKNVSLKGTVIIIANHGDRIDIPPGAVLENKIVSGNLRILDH
Chain of UniProt P63104 (whole entry, looked up): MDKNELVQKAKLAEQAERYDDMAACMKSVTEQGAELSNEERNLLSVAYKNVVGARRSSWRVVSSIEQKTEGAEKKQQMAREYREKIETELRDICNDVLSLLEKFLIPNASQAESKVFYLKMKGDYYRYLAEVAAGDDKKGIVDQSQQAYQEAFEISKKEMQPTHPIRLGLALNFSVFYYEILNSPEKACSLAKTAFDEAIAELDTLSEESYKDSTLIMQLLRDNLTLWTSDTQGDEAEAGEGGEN
Chain of UniProt P61026 (whole entry, looked up): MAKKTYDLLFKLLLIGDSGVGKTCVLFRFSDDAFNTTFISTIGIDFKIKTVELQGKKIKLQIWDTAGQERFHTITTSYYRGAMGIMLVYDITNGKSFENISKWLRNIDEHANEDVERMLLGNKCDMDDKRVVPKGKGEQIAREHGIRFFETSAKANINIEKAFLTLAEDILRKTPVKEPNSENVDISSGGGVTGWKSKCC

| Molecule | target or system | test | system | conditions | how to read | quantity | value |
| --- | --- | --- | --- | --- | --- | --- | --- |
| PNP (Homo sapiens, UniProt P00491) | Hemoglobin subunit alpha | cross-linking MS | – | with: DSSO or DMTMM | – | cross-linked residues | K179 to D76 |
| REN (Homo sapiens, UniProt P00797) | FGG (Homo sapiens, UniProt P02679) | cross-linking MS | – | with: DSSO | – | cross-linked residues | K315 to K121 |
| SLC4A1 (Homo sapiens, UniProt P02730) | ANK2 (Homo sapiens, UniProt Q01484) | cross-linking MS | – | with: DSSO or DMTMM | – | cross-linked residues | D369 to K1715 |
| ACDDQNPWRAYLDLLFPTDTLLLDLLW | – | ex vivo fluorescence imaging | peptide, BALB/c mice, 4T1 tumour-bearing, 4T1 tumour | intravenous, 5 nmol, 4 h post-injection | higher = more uptake | mean fluorescence intensity | 5810 ± 880 a.u. |
| HSP90AB1 (Homo sapiens, UniProt P08238) | NOC3L (Homo sapiens, UniProt Q8WTT2) | cross-linking MS | cells | with: iqPIR | – | cross-linked residues | K435 to K390 |
| VIM (Homo sapiens, UniProt P08670) | KRT7 (Homo sapiens, UniProt P08729) | cross-linking MS | cells | with: BDP-NHP | – | cross-linked residues | K294 to K286 |
| ANK1 (Homo sapiens, UniProt P16157) | EPB42 (Homo sapiens, UniProt P16452) | cross-linking MS | – | with: DSSO or DMTMM | – | cross-linked residues | K59 to D86 |
| EEF1G (Homo sapiens, UniProt P26641) | EEF1D (Homo sapiens, UniProt P29692) | cross-linking MS | cells | with: BDP-NHP | – | cross-linked residues | K219 to K17 |
| ITIH2 (Homo sapiens, UniProt P19823) | DTX3L (Homo sapiens, UniProt Q8TDB6) | cross-linking MS | – | with: DSSO | – | cross-linked residues | K605 to K460 |
| PLEC (Homo sapiens, UniProt Q15149) | SKIC2 (Homo sapiens, UniProt Q15477) | cross-linking MS | cells | with: BDP-NHP | – | cross-linked residues | K2189 to K791 |
| COL6A3 (Homo sapiens, UniProt P12111) | HBB (Homo sapiens, UniProt P68871) | cross-linking MS | – | with: DSSO or DMTMM | – | cross-linked residues | K1913 to E122 |
| CCT6A (Homo sapiens, UniProt P40227) | CCT8 (Homo sapiens, UniProt P50990) | cross-linking MS | – | with: DSSO | – | cross-linked residues | K199 to K400 |
| KRT19 (Homo sapiens, UniProt P08727) | UTP11 (Homo sapiens, UniProt Q9Y3A2) | cross-linking MS | cells | with: iqPIR | – | cross-linked residues | K265 to K7 |
| ALB (Homo sapiens, UniProt P02768) | CCDC63 (Homo sapiens, UniProt Q8NA47) | cross-linking MS | – | with: DSSO | – | cross-linked residues | K543 to K140 |
| FARSB (Homo sapiens, UniProt Q9NSD9) | FARSA (Homo sapiens, UniProt Q9Y285) | cross-linking MS | cells | with: BDP-NHP | – | cross-linked residues | K467 to K481 |
| EKPIDSETKM | human SCRIB PDZ3-4 tandem (MBP fusion) | automated holdup | peptide, crude extract | concentration not given, corrected by standard peak, unit not given | reference: biotin control resin, higher = stronger binding | binding intensity | -0.131 |
| epoetin alfa | UT7/EPO | microarray, refers to: OSM (probe 214637_at) | – | 5 U/mL, 90 min, with: SCF 10 nM | reference: vehicle | mRNA level | 54.5 fold |
| PDCD4 (Homo sapiens, UniProt Q53EL6) | WDR76 | cross-linking MS | – | with: DSSO | – | cross-linked residues | K115 to K442 |
| GOLIM4 (Homo sapiens, UniProt O00461) | SLC4A1 (Homo sapiens, UniProt P02730) | cross-linking MS | – | with: DSSO or DMTMM | – | cross-linked residues | K581 to D25 |

| Molecule | target or system | test | system | conditions | how to read | quantity | value |
| --- | --- | --- | --- | --- | --- | --- | --- |
| 11-deoxycorticosterone | human CYP11B2 | stopped-flow kinetic modelling | – | 4-state closed model, with: equimolar adrenodoxin | – | Kd | 7.41 µM |
| CRACDL (Homo sapiens, UniProt Q6NV74) | WDR76 | cross-linking MS | – | with: DSSO | – | cross-linked residues | K962 to K10 |
| DNAJA2 (Homo sapiens, UniProt O60884) | SLC25A5 (Homo sapiens, UniProt P05141) | cross-linking MS | purified complex | with: DSSO | – | cross-linked residues | K212 to K147 |
| YWHAE (Homo sapiens, UniProt P62258) | YWHAZ (Homo sapiens, UniProt P63104) | cross-linking MS | cells | with: iqPIR | – | cross-linked residues | K50 to K68 |
| Peginesatide | UT7/EPO | RT-qPCR, refers to: PTGS2 | – | concentration not given, 90 min, normalized to HPRT1 | reference: vehicle | mRNA level | 3.2 fold |
| UGP2 (Homo sapiens, UniProt Q16851) | PNN (Homo sapiens, UniProt Q9H307) | cross-linking MS | cells | with: iqPIR | – | cross-linked residues | K124 to K20 |
| FGB (Homo sapiens, UniProt P02675) | DNAJB4 (Homo sapiens, UniProt Q9UDY4) | cross-linking MS | – | with: DSSO | – | cross-linked residues | K51 to K26 |
| KRT8 (Homo sapiens, UniProt P05787) | KRT74 (Homo sapiens, UniProt Q7RTS7) | cross-linking MS | cells | with: BDP-NHP | – | cross-linked residues | K264 to K150 |
| FGA (Homo sapiens, UniProt P02671) | NLRP3 (Homo sapiens, UniProt Q96P20) | cross-linking MS | – | with: DSSO | – | cross-linked residues | K476 to K131 |
| HSPA9 (Homo sapiens, UniProt P38646) | Hemoglobin subunit alpha | cross-linking MS | – | with: DSSO or DMTMM | – | cross-linked residues | D496 to K12 |
| KRT8 (Homo sapiens, UniProt P05787) | DDX10 (Homo sapiens, UniProt Q13206) | cross-linking MS | cells | with: iqPIR | – | cross-linked residues | K117 to K522 |
| colistin | Morganella morganii | broth microdilution | clinical isolate RKI 93/15 | – | – | MIC | > 64 µg/mL |
| GAPDH (Homo sapiens, UniProt P04406) | RFC1 (Homo sapiens, UniProt P35251) | cross-linking MS | cells | with: iqPIR | – | cross-linked residues | K61 to K514 |
| FLOT1 (Homo sapiens, UniProt O75955) | FLOT2 (Homo sapiens, UniProt Q14254) | cross-linking MS | cells | with: BDP-NHP | – | cross-linked residues | K51 to K100 |
| RTRAF (Homo sapiens, UniProt Q9Y224) | RTCB (Homo sapiens, UniProt Q9Y3I0) | cross-linking MS | cells | with: iqPIR | – | cross-linked residues | K185 to K492 |
| SPTBN1 (Homo sapiens, UniProt Q01082) | LMO7 (Homo sapiens, UniProt Q8WWI1) | cross-linking MS | cells | with: BDP-NHP | – | cross-linked residues | K593 to K1248 |
| FGG (Homo sapiens, UniProt P02679) | GNL3L (Homo sapiens, UniProt Q9NVN8) | cross-linking MS | – | with: DSSO | – | cross-linked residues | K231 to K180 |
| SFPQ (Homo sapiens, UniProt P23246) | RAB10 (Homo sapiens, UniProt P61026) | cross-linking MS | cells | with: iqPIR | – | cross-linked residues | K332 to K102 |
| VMRLQSETSV | human SCRIB PDZ3-4 tandem (MBP fusion) | automated holdup | peptide, crude extract | concentration not given, uncorrected, unit not given | reference: biotin control resin, higher = stronger binding | binding intensity | 0.811 |

Some of these lines once more:
| Molecule | target or system | test | system | conditions | how to read | quantity | value |
| --- | --- | --- | --- | --- | --- | --- | --- |
| ANK1 (Homo sapiens, UniProt P16157) | EPB42 (Homo sapiens, UniProt P16452) | cross-linking MS | – | with: DSSO or DMTMM | – | cross-linked residues | K59 to D86 |
| EEF1G (Homo sapiens, UniProt P26641) | EEF1D (Homo sapiens, UniProt P29692) | cross-linking MS | cells | with: BDP-NHP | – | cross-linked residues | K219 to K17 |
| ITIH2 (Homo sapiens, UniProt P19823) | DTX3L (Homo sapiens, UniProt Q8TDB6) | cross-linking MS | – | with: DSSO | – | cross-linked residues | K605 to K460 |
| PLEC (Homo sapiens, UniProt Q15149) | SKIC2 (Homo sapiens, UniProt Q15477) | cross-linking MS | cells | with: BDP-NHP | – | cross-linked residues | K2189 to K791 |
| COL6A3 (Homo sapiens, UniProt P12111) | HBB (Homo sapiens, UniProt P68871) | cross-linking MS | – | with: DSSO or DMTMM | – | cross-linked residues | K1913 to E122 |
| CCT6A (Homo sapiens, UniProt P40227) | CCT8 (Homo sapiens, UniProt P50990) | cross-linking MS | – | with: DSSO | – | cross-linked residues | K199 to K400 |
